# Assay results collected from several papers.
# Numbered parts are unrelated; each lists some results of a single study. Positions count from the first letter of the parent shown.
# Chain of UniProt P42684 (whole entry, looked up): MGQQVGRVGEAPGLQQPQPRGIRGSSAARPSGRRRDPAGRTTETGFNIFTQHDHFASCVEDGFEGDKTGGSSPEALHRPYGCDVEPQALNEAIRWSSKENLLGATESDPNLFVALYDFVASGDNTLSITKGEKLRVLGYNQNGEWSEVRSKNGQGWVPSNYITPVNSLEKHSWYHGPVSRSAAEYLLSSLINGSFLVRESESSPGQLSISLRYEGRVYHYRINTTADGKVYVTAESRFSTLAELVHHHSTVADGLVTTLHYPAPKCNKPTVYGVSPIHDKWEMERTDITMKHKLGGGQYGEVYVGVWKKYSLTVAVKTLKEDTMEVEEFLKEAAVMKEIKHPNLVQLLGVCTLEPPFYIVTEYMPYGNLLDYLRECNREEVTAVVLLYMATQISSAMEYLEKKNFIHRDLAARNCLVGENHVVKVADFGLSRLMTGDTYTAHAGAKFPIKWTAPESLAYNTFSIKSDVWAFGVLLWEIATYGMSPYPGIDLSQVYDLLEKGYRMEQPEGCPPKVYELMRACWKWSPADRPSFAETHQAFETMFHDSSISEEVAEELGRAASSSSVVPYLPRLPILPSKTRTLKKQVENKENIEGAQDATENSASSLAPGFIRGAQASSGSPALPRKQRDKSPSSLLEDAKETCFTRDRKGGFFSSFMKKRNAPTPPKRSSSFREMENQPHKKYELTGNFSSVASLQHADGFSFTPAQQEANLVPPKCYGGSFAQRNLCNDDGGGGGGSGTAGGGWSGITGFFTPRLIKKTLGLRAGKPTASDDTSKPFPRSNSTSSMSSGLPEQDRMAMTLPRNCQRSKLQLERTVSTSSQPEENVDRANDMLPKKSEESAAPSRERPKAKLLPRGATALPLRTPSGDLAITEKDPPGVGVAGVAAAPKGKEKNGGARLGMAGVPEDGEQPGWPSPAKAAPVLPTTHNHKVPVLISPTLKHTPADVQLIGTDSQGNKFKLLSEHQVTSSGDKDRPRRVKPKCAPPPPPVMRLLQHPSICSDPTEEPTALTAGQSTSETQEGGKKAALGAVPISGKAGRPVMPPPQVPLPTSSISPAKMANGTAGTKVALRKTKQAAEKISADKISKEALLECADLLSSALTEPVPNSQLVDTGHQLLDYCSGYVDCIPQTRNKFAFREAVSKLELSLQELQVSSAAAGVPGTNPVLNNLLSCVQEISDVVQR

# Study 1
# Target: FOSL1, bZIP domain (human)
# Method: DHFR protein complementation
# Sample: yeast
# Setting: single substitutions, most at no-binding floor
# Baseline: wild-type JUN-FOS pair
# Direction: higher = stronger binding
# Starting sequence: JUN, bZIP domain (human); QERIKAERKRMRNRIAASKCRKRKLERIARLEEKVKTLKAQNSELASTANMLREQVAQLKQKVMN; partner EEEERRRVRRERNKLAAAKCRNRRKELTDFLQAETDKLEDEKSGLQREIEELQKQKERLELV
Variant,binding fitness [natural log]
M51T,-0.295
T48W,-0.673
T37Q,-0.176
L31C,-1.07
I28Q,-0.487
L52C,-1.47
L31Y,-0.887
N42R,-0.762

# Study 2
# Target: RNA binding protein fox-1 homolog 2, RRM domain, GST-SBP tag (RBFOX2, Homo sapiens, UniProt O43251-10, residues 100-194)
# Method: RNA Bind-n-Seq
# Form: RNA
# Sample: in vitro
# Tested at: 365 nM
# Setting: natural RNA segment, single round, ends assumed
# Baseline: no-protein control
# Direction: higher = stronger binding
# All sequences stand within: GGGAGUUCUACAGUCCGACGAUC … UGGAAUUCUCGGGUGCCAA
# Target sequence (chain): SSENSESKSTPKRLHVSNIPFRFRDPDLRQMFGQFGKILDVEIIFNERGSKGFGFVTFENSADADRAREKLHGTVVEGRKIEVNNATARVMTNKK
Oligonucleotide,RBNS enrichment (R)
AUGUGCUAAGUUAGGGAUUGGAGGGGCGUGCAUUUACAUGGGAAAGUAAUGCUAAUUAGAAAUCAGUUGGACUUCAACAUUCUCAAGUACUUCCACAAAGCAUCCCUUGG,1.24
UAAAAGUUAUAAUGUGUAUUUGUAAAUAAAUGAUGAGUGAAAAAAUAAAAAAAUUUUAAAAAGCCAAUGGUUUCAAUUCCUGAUGAUGCAAAGAAGUUAUUUGGACUUUU,1.23
CCUAAUUCAUCAUAUUGGUUUAAGCAUGCUGCCUCCUGAGAGCCACAGUGUCAUAUACAGAUACUUCCGCAGGUCCUUAGAGUUCAAAGGGUUUUAAUCCAGGACAUAAG,7.49
CUGUAAAGGCUGCAUCCAUGUUAGUUGGCACAUAAAGGCAAUUAAUUGUAGAAGUUGAAACAUGAUCGCUAUAUUUCAAUGUUUAUUCCCGUUCAACGUACUGCCUCUAA,2.12
UGUGAACACAAAGUCUGACUUGAAGAUUCUCUGCAAUGAAGAGAAUUCAUUCAUUCACUCUGCUCAAGACUCCACUGGGCCAAGAGAUGGAAGAACAAACAAAAAGGACU,0.283
CAUGCCUUCCCUGCUGGAUCAUUAUAUACAUUCAGAUUGUGAGUGGAUUGCCUUGGUUGACUUUUAAUUUAUUGUUUUUUGUUCUUAUAAAGAUGAUAAUCUUACCUUGC,0.783
UCCUCCUAUUGUGUAUAGGUGUGUAUAUGUGUGUAAAUAUUUCACACAACAACAUCUGUACAAGCAUAUAUAUUUCAAAUCCAAGAUCUUGCCCUGUAACCCAUAUCUAC,0.567
CUUGCAUCCAUGCCCAGCCAAUAUACAACUGUAAAGCAAAUAUAGAAAGUCGGCUGUUGAUACGAUUGUCUGUUAUCGAACACAUUCAGUGAUAAAGCUGGGUUACUGCU,1.04

# Study 3
# Target: Prothrombin, mature alpha-thrombin (F2, Homo sapiens, UniProt P00734)
# Method: aptamer microarray, sandwich
# Form: DNA with 2'F-ANA
# Sample: in vitro
# Tested at: 200 nM
# Setting: whole 15-mer aptamer, many near background
# Added: Cy3 exosite-II aptamer, 400 nM
# Direction: higher = stronger binding
# Oligonucleotide: GGTTGGTGTGGTTGG
Modification,mean fluorescence intensity [a.u.]
2'F-ANA at 2 4 6 7 8 11,270
2'F-ANA at 4 5 6 7 8 11 14 15,45.6
2'F-ANA at 1 4 7 8 9 10 11 12 13,54.6
2'F-ANA at 9 10 13 14,116
2'F-ANA at 4 5 6 8 9 11 13 15,80.7
2'F-ANA at 1 4 6 8 11 13 14 15,65.2
2'F-ANA at 1 2 3 6 7 8 9 11 12,352
2'F-ANA at 1 2 3 7 9 11 14,66.6

# Further values, each from its own experiment
Structure (SMILES),target,assay,setting,quantity,value
Cc1cc(Nc2cc(N3CCN(C)CC3)nc(Sc3ccc(NC(=O)C4CC4)cc3)n2)[nH]n1,"Tyrosine-protein kinase ABL2 (ABL2, Homo sapiens, UniProt P42684)","enzyme activity, inhibitor",0.5 µM,remaining activity,5.75%
